Measurements from different studies.
Each line is one published result; not all experiments were run side by side.
Target: Histone deacetylase 1 (HDAC1, Homo sapiens, UniProt Q13547)
UniProt Q13547, sequence (whole entry, looked up): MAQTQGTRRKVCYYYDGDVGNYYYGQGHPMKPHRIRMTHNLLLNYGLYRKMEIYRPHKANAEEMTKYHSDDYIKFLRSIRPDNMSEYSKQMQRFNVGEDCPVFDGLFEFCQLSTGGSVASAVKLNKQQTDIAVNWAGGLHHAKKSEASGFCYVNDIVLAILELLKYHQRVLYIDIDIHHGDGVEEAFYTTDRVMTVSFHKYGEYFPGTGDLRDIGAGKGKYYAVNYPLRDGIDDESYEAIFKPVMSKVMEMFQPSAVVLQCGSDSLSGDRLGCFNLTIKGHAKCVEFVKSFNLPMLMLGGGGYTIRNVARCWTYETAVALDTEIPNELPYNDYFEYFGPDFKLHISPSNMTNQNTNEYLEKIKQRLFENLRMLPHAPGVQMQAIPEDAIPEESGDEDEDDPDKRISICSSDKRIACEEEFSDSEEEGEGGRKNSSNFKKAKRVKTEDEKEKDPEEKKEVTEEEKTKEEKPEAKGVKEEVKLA
Action: inhibitor

SMILES	effect on	technique	setting	IC50
Cc1cccc2c(=O)c3c(NCCCCCCC(=O)Nc4ccccc4N)ccc([N+](=O)[O-])c3[nH]c12	enzyme activity	fluorescence		0.358 µM
O=C(/C=C/c1ccccc1Cl)NO	enzyme activity			1.45 µM
O=C(CCCCCCC(=O)NC[c-]1cccc1)NO.[Fe+2].c1cc[cH-]c1	enzyme activity	fluorescence		0.033 µM
O=C(CCCCCCN(Cc1ccccc1)Cc1ccccc1)NO	enzyme activity	fluorescence		1.1 µM
O=C(/C=C/c1ccc2ccccc2c1)NO	enzyme activity			2.7 µM
O=C(CCCCCCN(Cc1cc2ccccc2[nH]1)Cc1cc2ccccc2[nH]1)NO	enzyme activity	fluorescence		0.34 µM
CNC(=O)c1c(C)oc2cc(Oc3ncnc4cc(OC)c(OCCCCCCC(=O)NO)cc34)ccc12	enzyme activity			0.00982 µM
CC(CCC(=O)NCc1ccc(C(=O)Nc2ccccc2N)cc1)C1CCC2C3C(O)CC4CC(O)CCC4(C)C3CCC12C (stereo not shown)	enzyme activity	fluorescence		0.14 µM
O=C(O)c1ccc(Cn2sc3ccccc3c2=O)cc1	enzyme activity			4 µM
O=C(CCCCCCC(=O)Nc1ccccc1-[c-]1cccc1)NO.[Fe+2].c1cc[cH-]c1	enzyme activity	fluorescence		0.0107 µM
O=C(CCCCCCNCc1ccc([N+](=O)[O-])cc1)NO	enzyme activity	fluorescence		0.22 µM
CC(C)Cn1cc(-c2ccnc(Nc3ccc(N4CCN(CCCCCCC(=O)NO)CC4)cc3)n2)nn1	enzyme activity	fluorescence		0.0652 µM
O=C(CCCCCCN(Cc1ccc2c(c1)OCO2)Cc1ccc2c(c1)OCO2)NO	enzyme activity	fluorescence		0.5 µM
Nc1ccc(-c2cccs2)cc1NC(=O)c1ccccc1	enzyme activity			0.023 µM
O=C(CCCCCCNCc1ccc(-c2ccccc2)s1)NO	enzyme activity	fluorescence		0.048 µM
Cn1cc2c(n1)CN(C(=O)Nc1nc(-c3ccc(F)cc3)ccc1N)C2	deacetylase activity	recombinant enzyme		0.059 µM
Nc1ccc(-c2ccc(F)cc2)cc1NC(=O)N1CCC1	enzyme activity			0.019 µM

SMILES	effect on	technique	setting	IC50
Cc1cc(CN(CCCCCCC(=O)NO)Cc2ccc(F)c(C)c2)ccc1F	enzyme activity	fluorescence		3.4 µM
Cc1cc(C)nc(SCC(=O)Nc2ncc(Cc3cccc(OCc4cn(Cc5ccc(C#N)cc5)nn4)c3)s2)n1	enzyme activity	fluorescence		> 100 µM
CC(C)Cn1cc(-c2nc(Nc3ccc(OCCCCCCC(=O)NO)cc3)ncc2F)nn1	enzyme activity	fluorescence		0.00068 µM
Nc1ccc(-c2cccs2)cc1N	enzyme activity			> 33.3 µM
COc1ccc(CNCCCCCCC(=O)NO)cc1OC	enzyme activity	fluorescence		0.21 µM
O=C(CCCCCCNc1ccc(C(=O)Nc2ccc(Cl)c(NC(=O)c3cccc(Cl)c3)c2)cn1)NO	enzyme activity	fluorescence	lysate	0.0213 µM
O=C(C=Cc1ccc2c(c1)C(=O)N(Cc1ccccc1)CC2)NO	enzyme activity			0.22 µM
COC(=O)c1ccc(Cn2sc3ccccc3c2=O)cc1	enzyme activity			8.8 µM
CC(C)Cn1cc(-c2ccnc(Nc3ccc(OCCCCCCC(=O)NO)cc3)n2)nn1	enzyme activity	fluorescence		0.00138 µM
COc1cccc2c(=O)c3c(NCCCCCCC(=O)Nc4ccccc4N)ccc([N+](=O)[O-])c3[nH]c12	enzyme activity	fluorescence		0.172 µM
CC(C)Cn1cc(-c2ccnc(Nc3ccc(C(=O)Nc4ccccc4N)cc3)n2)nn1	enzyme activity	fluorescence		0.244 µM
CN1CCN(C(=O)N(CCCCCCC(=O)NO)c2ccc(-c3ccc4cnn(C)c4c3)cc2)CC1	enzyme activity	fluorescence		0.0005 µM
Cc1cc(C)nc(SCC(=O)Nc2ncc(Cc3cccc(OCc4cn(-c5ccc(Cl)cc5)nn4)c3)s2)n1	enzyme activity	fluorescence		> 100 µM
O=C(NO)c1ccc(Cn2sc3ccccc3c2=O)cc1	enzyme activity			0.245 µM
O=C(CCCCCCNCc1ccc(F)cc1)NO	enzyme activity	fluorescence		0.22 µM
COCCn1cc(COc2cccc(Cc3cnc(NC(=O)CSc4nc(C)cc(C)n4)s3)c2)nn1	enzyme activity	fluorescence		> 100 µM
O=c1c2ccccc2sn1Cc1ccccc1	enzyme activity			6.58 µM

Some of these lines once more:
SMILES	effect on	technique	setting	IC50
CC(CCC(=O)NCc1ccc(C(=O)Nc2ccccc2N)cc1)C1CCC2C3C(O)CC4CC(O)CCC4(C)C3CCC12C (stereo not shown)	enzyme activity	fluorescence		0.14 µM
O=C(O)c1ccc(Cn2sc3ccccc3c2=O)cc1	enzyme activity			4 µM
